Published values gathered from unrelated publications.
Numbered parts are unrelated; each lists some results of a single study.

Set 1
Target: Histone acetyltransferase KAT6A, both winged helices, GST fusion (KAT6A, Homo sapiens, UniProt Q92794, residues 1-181)
Method: protein binding microarray
Form: double-stranded DNA, one strand shown
Matrix: in vitro
Concentration: not given
Notes: 8-mer, flanks averaged, mean of 2 arrays, mostly near background
Baseline: not given
Direction: higher = stronger binding
Target sequence (chain): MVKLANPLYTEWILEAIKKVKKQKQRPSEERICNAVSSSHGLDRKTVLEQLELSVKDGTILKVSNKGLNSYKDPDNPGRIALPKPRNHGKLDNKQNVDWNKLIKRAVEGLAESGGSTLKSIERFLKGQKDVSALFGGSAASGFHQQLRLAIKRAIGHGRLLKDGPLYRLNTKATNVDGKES
| Strand | E-score |
| --- | --- |
| AGGCGACA | 0.04 |
| AGTTAGTC | -0.036 |
| GCGTCAGC | 0.278 |
| AATGAGGT | -0.111 |

Set 2
Target: Prothrombin, mature alpha-thrombin (F2, Homo sapiens, UniProt P00734)
Method: aptamer microarray, sandwich
Form: DNA with 2'F-ANA
Matrix: in vitro
Concentration: 200 nM
Notes: whole 15-mer aptamer, many near background
With: Cy3 exosite-II aptamer, 400 nM
Direction: higher = stronger binding
| Strand | mean fluorescence intensity [a.u.] |
| --- | --- |
| GGTTGGTGTGGTTGG (2'F-ANA at 2 3 6 8 9 12 13 15) | 757 |
| GGTTGGTGTGGTTGG (2'F-ANA at 1 2 3 4 6 11 12 15) | 221 |
| GGTTGGTGTGGTTGG (2'F-ANA at 2 6 7 8 12 13 14 15) | 167 |

Set 3
Target: Sal-like protein 4, full length isoform A (SALL4, Homo sapiens, UniProt Q9UJQ4, residues 1-1053)
UniProt Q9UJQ4, sequence (whole entry, looked up): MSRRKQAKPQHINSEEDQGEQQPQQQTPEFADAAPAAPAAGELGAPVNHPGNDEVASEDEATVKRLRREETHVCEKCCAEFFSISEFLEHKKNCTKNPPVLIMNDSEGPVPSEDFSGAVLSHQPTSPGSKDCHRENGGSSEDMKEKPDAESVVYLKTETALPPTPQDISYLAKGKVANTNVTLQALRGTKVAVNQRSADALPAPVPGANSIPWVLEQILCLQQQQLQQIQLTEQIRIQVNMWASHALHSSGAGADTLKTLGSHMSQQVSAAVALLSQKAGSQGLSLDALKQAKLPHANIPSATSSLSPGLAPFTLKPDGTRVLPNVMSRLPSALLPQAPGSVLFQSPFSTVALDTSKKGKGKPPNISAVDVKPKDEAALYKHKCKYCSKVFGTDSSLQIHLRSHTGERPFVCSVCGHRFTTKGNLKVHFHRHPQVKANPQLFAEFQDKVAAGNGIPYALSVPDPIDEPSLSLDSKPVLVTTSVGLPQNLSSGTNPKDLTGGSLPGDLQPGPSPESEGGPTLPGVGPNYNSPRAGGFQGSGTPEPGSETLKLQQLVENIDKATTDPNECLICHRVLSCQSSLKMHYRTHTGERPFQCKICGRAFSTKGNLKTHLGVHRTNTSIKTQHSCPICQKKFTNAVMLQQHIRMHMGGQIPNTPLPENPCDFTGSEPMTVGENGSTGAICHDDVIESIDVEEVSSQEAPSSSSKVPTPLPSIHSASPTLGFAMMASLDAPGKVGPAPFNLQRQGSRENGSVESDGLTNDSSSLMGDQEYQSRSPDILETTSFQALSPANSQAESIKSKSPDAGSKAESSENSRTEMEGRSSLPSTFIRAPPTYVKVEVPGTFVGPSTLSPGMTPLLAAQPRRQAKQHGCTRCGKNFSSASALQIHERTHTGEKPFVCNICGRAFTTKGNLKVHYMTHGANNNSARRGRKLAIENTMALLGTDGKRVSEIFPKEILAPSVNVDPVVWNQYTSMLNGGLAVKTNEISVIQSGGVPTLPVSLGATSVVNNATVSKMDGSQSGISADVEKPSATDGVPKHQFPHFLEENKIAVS
Method: universal PBM
Form: double-stranded DNA, one strand shown
Matrix: in vitro
Concentration: 600 nM
Notes: 8-mer, flanks averaged, mean of replicates
Direction: higher = stronger binding
| Strand | E-score |
| --- | --- |
| GTTAGCCA | -0.168 |
| AAGGCGCG | -0.237 |
| AGTAAGCC | -0.0949 |
| CCAAGTAA | 0.124 |

Mixed results
| Substance | target | assay | system | conditions | scale | endpoint | result |
| --- | --- | --- | --- | --- | --- | --- | --- |
| PhoQ, residues 284 288 289 292 302 303 SLGVVW | PhoP, residues 12 14 15 18 19 NIMAP (Escherichia coli, UniProt P23836) | Sort-seq, refers to: YFP reporter | E. coli | PhoQ-PhoP variant library, with: 10 µM Mg2+ | baseline: high Mg2+ state, higher = stronger signaling | fold induction | 0.66 |
